Earlier results, collected from citations in different studies.
Each line is one published result; not all experiments were run side by side. Numbers after ± are the reported error.

SMILES	cell line	effect on	technique	time	notes	with	IC50
Cc1cc2c(c(=O)o1)C(c1ccc(-n3cncn3)cc1)C(C#N)=C(N)O2 (centres unmarked)	HCT-116	cell growth	–	–	–	–	7.58 ± 1.01 µM
COc1ccccc1NC(=O)N[C@H](C(=O)Nc1ccc(C(=O)NO)cc1)c1ccccc1	HCT-116	cell viability	MTT	–	–	–	4 µM
CC(=O)OCC12C(=O)C=CC(OC(C)=O)C13OC3CC1C3CCC(C(C)C4CC(C)=C(C)C(=O)O4)C3(C)CCC12 (centres unmarked)	Hs-578T	cell growth	–	–	–	–	0.26 µM
O=C1OCC2=C1C(c1cccc(Br)c1)C1=C(N2)C(=O)c2ccccc2C1=O (centres unmarked)	SK-LU-1 cells	cell growth	–	–	–	–	< 0.036 µM
CCC1=C(O)c2c(oc(-c3cccc4ccccc34)cc2=O)C(CC)(CC)C1=O	KB	cell growth	SRB	–	–	–	1.55 µM
O=C(/C=C/c1ccc(O)c(O)c1)NCCc1ccc(O)c(O)c1	RAW264.7	nitric oxide production	–	24 h	–	LPS 100 ng/mL	39.1 ± 3.53 µM
O=C1OCC2=C1C(c1ccccc1[N+](=O)[O-])C1=C(N2)C(=O)c2ccccc2C1=O (centres unmarked)	HepG2 cells	cell growth	–	–	–	–	0.47 ± 0.01 µM
O=C1C(=Cc2ccc(Br)cc2)CCCC12C1CCCN1C1(C(=O)Nc3ccccc31)C2c1ccc(Br)cc1 (centres unmarked)	breast cancer cell lines	cell growth	–	–	–	–	15.49 ± 0.04 µM
CCC1=C(O)c2c(oc(-c3cc4ccccc4s3)cc2=O)C(CC)(CC)C1=O	HepG2	cell growth	SRB	–	–	–	15.7 µM
CC[C@H](C)[C@@H]1NC(=O)[C@H](Cc2c[nH]c3ccccc23)NC(=O)[C@H](C)NC(=O)[C@H](C(C)C)NC(=O)[C@H](CC(C)C)NC(=O)[C@H](Cc2c[nH]c3ccccc23)NC1=O	MM1.S	–	–	–	–	–	8 µM
C/C(=N\Nc1ccccc1)c1ccc(NC(=O)c2cccnc2)cc1	HCT-116	cell growth	–	–	–	–	3.08 µM
CCN(CC)c1ccc2c(c1)Oc1cc(N(CC)CC)ccc1C21c2ccccc2C(=O)N1N=Cc1ccnc(-c2cc(C)ccn2)c1.Cc1c(C)c(-c2ccc(-c3ccccc3)cc2)[c-](C)c1C.F[P-](F)(F)(F)(F)F.[Cl-].[Ir+3]	A549 cancer cells	–	–	–	–	–	4.3 ± 0.2 µM
O=C1c2ccccc2NC(c2ccc(O)c(O)c2)N1/N=C/c1ccc(O)c(O)c1 (centres unmarked)	human renal tubule TH-1	cytotoxicity	–	–	–	–	178 µM
CC1=C2[O][Ru-]([Cl])[O+]=C2C=CN1CCCCCCCCCCCCN1C=CC2=[O+][Ru-]([Cl])[O]C2=C1C.Cc1ccc(C(C)C)cc1.Cc1ccc(C(C)C)cc1	A2780	–	MTT	–	–	–	1.5 ± 0.3 µM
O=C1OCC2=C1C(c1cccc([N+](=O)[O-])c1)C1=C(N2)C(=O)c2ccccc2C1=O (centres unmarked)	SK-LU-1 cells	cell growth	–	–	–	–	< 0.039 µM
COc1ccc(-c2nnc(Nc3ccc(-c4ccccc4)s3)s2)cc1	B16-F10	–	–	–	–	–	< 10 µM
CCNc1cc2c(cc1C)C1(c3cc(C)c(NCC)cc3O2)c2ccccc2C(=O)N1N=Cc1ccnc(-c2cc(C)ccn2)c1.Cc1c(C)c(-c2ccc(-c3ccccc3)cc2)[c-](C)c1C.F[P-](F)(F)(F)(F)F.[Cl-].[Ir+3]	HeLa cancer cells	–	–	–	–	–	3.6 ± 0.8 µM
CC1=C(C)C(=O)OC(C(C)(O)C2CCC3C4CC5OC56C(O)C=CC(=O)C6(C)C4CCC32C)C1 (centres unmarked)	bone marrow cells	–	–	–	–	–	7.24 µM
COc1ccc(C(C#N)(CCCCCN2Cc3cc(OC)c(OC)cc3C2)Sc2ccc(C)cc2)cc1OC (centres unmarked)	S1B1-20	–	–	–	–	–	0.81 µM
Cc1ccc2nc(SCC(=O)N/N=C3\C(=O)Nc4ccc([N+](=O)[O-])cc43)n(-c3ccccc3)c(=O)c2c1	colorectal and breast cancer lines	cell growth	–	–	average over cell lines	–	10 µM
COc1cc(OC)cc(C2=C3C(C)=C(I)C(C)=[N+]3[B-](F)(F)n3c(C)c(I)c(C)c32)c1	HEp-2	cytotoxicity	–	–	dark	–	> 400 µM
CC(=O)OC1CC2C3C(OC(C)=O)C4OC45C(O)C=CC(=O)C5(C)C3CCC2(C)C1C(C)(O)C1CC(C)=C(C)C(=O)O1 (centres unmarked)	Lu1	cell growth	–	–	–	–	2.46 µM

SMILES	cell line	effect on	technique	time	notes	with	IC50
O=C1NCC(Cc2ccccc2)N(CC2CCCN2CC(CC2CCCCC2)N2CC(Cc3ccc(O)cc3)N(CCc3ccccc3)C(=O)C2=O)C1=O (centres unmarked)	SK-MEL-28	viability	–	–	–	–	0.6 ± 0.4 µM
CC(C)[C@H]1CC[C@]2(C)C(=O)CCC(=O)C=C12	synovial cells	cell growth	–	–	–	–	11.8 ± 0.23 µM
CCCCn1cc(C(=O)O)c(=O)c2cc(F)c(Nc3cccc(Cl)c3)c(N)c21	PANC-1	–	–	–	–	–	< 50 µM
Oc1cccc(-c2cccc(O)n2)n1.[Cl-].[Cl-].[Ru+2].c1cnc2c(c1)c1c(c3cccnc32)OCCO1.c1cnc2c(c1)c1c(c3cccnc32)OCCO1	MCF-10A	cell viability	–	–	–	blue light 450 nm, 1 h	29 µM
CCC1=C(O)c2c(oc(-c3ccc4cc(OC)ccc4c3)cc2=O)C(CC)(CC)C1=O	HCT-8	cell growth	SRB	–	–	–	12 µM
Cc1ccc(Cn2cc(CN3C(=O)C4(C(C#N)=C(N)Nc5c4ccc4[nH]c6ccccc6c54)c4cc(F)ccc43)nn2)cc1 (centres unmarked)	HeLa	cell growth	–	–	–	–	3.35 µM
[Cl-].[Cl-].[Ru+2].c1ccc(-c2ccccn2)nc1.c1ccc(-c2ccccn2)nc1.c1cnc2c(c1)ccc1cccnc12	HT-29	–	–	–	dark	–	> 100 µM
CC1=CC(C)=[N+]2C1=C(CO)c1c(C)cc(C)n1[B-]2(C)C	HCT-116	cell viability	–	–	white lamp irradiation	–	0.17 ± 0.001 µM
CC(C)(C)C1=CC(=NNC(=O)c2ccncc2)C=C(C(C)(C)C)C1=O	HEK293	cell viability	–	–	–	–	0.97 µM
CC1=C2[O][Ru-]([Cl])[O+]=C2C=CN1CCCN1C=CC2=[O+][Ru-]([Cl])[O]C2=C1C.Cc1ccc(C(C)C)cc1.Cc1ccc(C(C)C)cc1	A2780	–	MTT	–	–	–	25 ± 2 µM
CCC1=C(O)c2c(oc(-c3ccc(OC)c4ccccc34)cc2=O)C(CC)(CC)C1=O	PC-3	cell growth	SRB	–	–	–	2.39 µM
CC(=O)OC1C2C3CCC(C(C)(O)C4CC(C)=C(C)C(=O)O4)C3(C)CCC2C2(C)C(=O)C=CC(O)C23OC13 (centres unmarked)	KB	cell growth	–	–	–	–	0.85 µM
Oc1cccc(-c2cccc(O)n2)n1.[Cl-].[Cl-].[Ru+2].c1cnc2c(c1)ccc1cccnc12.c1cnc2c(c1)ccc1cccnc12	MDA-MB-231	cell viability	–	–	–	blue light 450 nm, 1 h	83 µM
N=C(NO)NN=Cc1ccc2ccccc2n1	L1210	–	–	–	–	–	6.8 µM
COc1ccc(/C=C(\C)C(=O)c2cc(OC)c(OC)c(OC)c2)cc1O	K562	–	–	–	–	–	0.00021 µM
Cc1ccc(C2C3=C(COC3=O)NC3=C2C(=O)c2ccccc2C3=O)cc1 (centres unmarked)	HepG2 cells	cell growth	–	–	–	–	2.24 ± 0.01 µM
CC1=C(COC2OC(CO)C(O)C(O)C2O)C(=O)OC(C(C)C2CCC3C4CC5OC56C(O)C=CC(=O)C6(C)C4CCC23C)C1 (centres unmarked)	Hs-578T	cell growth	–	–	–	–	8.79 µM
CCC1=C(O)c2c(oc(-c3ccc4ccccc4c3)cc2=O)C(CC)(CC)C1=O	KB	cell growth	SRB	–	–	–	1.03 µM
CC1=C(CO)C(=O)O[C@@H]([C@@H](C)[C@H]2CC[C@H]3[C@@H]4C[C@H]5O[C@]56[C@@H](O)C=CC(=O)[C@]6(C)[C@H]4CC[C@]23C)C1	MCF7/BUS	–	–	–	–	–	0.11 µM
O=C(CCc1ccc(O)c(O)c1)NCCc1ccc(O)cc1	RAW264.7	nitric oxide production	–	24 h	–	LPS 100 ng/mL	40.4 ± 4.65 µM
CC(=O)OC1C=CC(=O)C2(CO)C3CCC4(C)C(C(C)C5CC(C)=C(C)C(=O)O5)CCC4C3CC3OC132 (centres unmarked)	Hs-578T	cell growth	–	–	–	–	0.43 µM
O=c1c2ccc(-n3cc(-c4ccccc4)nn3)cc2ncn1Cc1ccc(Br)cc1	HT-29	–	–	–	–	–	7.23 µM

Some of these lines once more:
SMILES	cell line	effect on	technique	time	notes	with	IC50
CC(=O)OC1C=CC(=O)C2(CO)C3CCC4(C)C(C(C)C5CC(C)=C(C)C(=O)O5)CCC4C3CC3OC132 (centres unmarked)	Hs-578T	cell growth	–	–	–	–	0.43 µM
CCN(CC)c1ccc2c(c1)Oc1cc(N(CC)CC)ccc1C21c2ccccc2C(=O)N1N=Cc1ccnc(-c2cc(C)ccn2)c1.Cc1c(C)c(-c2ccc(-c3ccccc3)cc2)[c-](C)c1C.F[P-](F)(F)(F)(F)F.[Cl-].[Ir+3]	A549 cancer cells	–	–	–	–	–	4.3 ± 0.2 µM
